{"data": "Measured values pooled from the literature", "note": "Parts stem from different laboratories: compare values within a part only. Changes are numbered by the printed parent chain."}
{"data": "Study 1", "target": "NFE2L1, bZIP domain (human)", "method": "DHFR protein complementation", "matrix": "yeast", "notes": "single substitutions, most at no-binding floor", "reference": "wild-type JUN-FOS pair", "reading": "higher = stronger binding", "parent": "JUN, bZIP domain (human); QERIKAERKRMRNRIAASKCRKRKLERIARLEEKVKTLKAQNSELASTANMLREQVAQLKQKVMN; partner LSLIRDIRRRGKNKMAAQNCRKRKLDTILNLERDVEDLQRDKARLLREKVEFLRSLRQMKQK"}
{"Substitution": "A57T", "binding fitness [natural log]": -1.4}
{"Substitution": "K39D", "binding fitness [natural log]": -1.49}
{"Substitution": "E44V", "binding fitness [natural log]": -1.52}
{"Substitution": "Q41I", "binding fitness [natural log]": -1.38}
{"Substitution": "Q41E", "binding fitness [natural log]": -1.13}
{"Substitution": "T48R", "binding fitness [natural log]": -1.28}
{"Substitution": "E54P", "binding fitness [natural log]": -1.54}
{"Substitution": "T37S", "binding fitness [natural log]": -1.53}
{"Substitution": "L38H", "binding fitness [natural log]": -1.45}
{"Substitution": "V35E", "binding fitness [natural log]": -1.53}
{"Substitution": "K39S", "binding fitness [natural log]": -1.41}
{"Substitution": "E54N", "binding fitness [natural log]": -1.46}
{"Substitution": "A46E", "binding fitness [natural log]": -1.56}
{"Substitution": "E33N", "binding fitness [natural log]": -1.48}
{"Substitution": "E44K", "binding fitness [natural log]": -1.59}
{"Substitution": "L31F", "binding fitness [natural log]": -1.3}
{"Substitution": "A29G", "binding fitness [natural log]": -1.49}
{"Substitution": "K36S", "binding fitness [natural log]": -1.47}
{"Substitution": "L38N", "binding fitness [natural log]": -1.48}
{"Substitution": "A29Y", "binding fitness [natural log]": -1.51}
{"Substitution": "L45M", "binding fitness [natural log]": -1.49}
{"Substitution": "R30F", "binding fitness [natural log]": -1.53}
{"Substitution": "E54W", "binding fitness [natural log]": -1.35}
{"data": "Study 2", "target": "ABI1, truncated, D143A, DHFR fusion (Arabidopsis thaliana)", "method": "DHFR PCA, deep sequencing", "matrix": "yeast", "notes": "methotrexate growth selection, single substitutions", "added": "(+)-ABA 0.39 µM", "reference": "wild-type fitted maximum", "reading": "higher = stronger binding", "parent": "PYL1, truncated, DHFR fusion (Arabidopsis thaliana); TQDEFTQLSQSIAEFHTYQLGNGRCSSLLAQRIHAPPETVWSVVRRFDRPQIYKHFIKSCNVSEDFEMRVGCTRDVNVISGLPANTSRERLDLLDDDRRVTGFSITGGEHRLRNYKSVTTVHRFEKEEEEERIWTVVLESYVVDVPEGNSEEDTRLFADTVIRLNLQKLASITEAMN; partner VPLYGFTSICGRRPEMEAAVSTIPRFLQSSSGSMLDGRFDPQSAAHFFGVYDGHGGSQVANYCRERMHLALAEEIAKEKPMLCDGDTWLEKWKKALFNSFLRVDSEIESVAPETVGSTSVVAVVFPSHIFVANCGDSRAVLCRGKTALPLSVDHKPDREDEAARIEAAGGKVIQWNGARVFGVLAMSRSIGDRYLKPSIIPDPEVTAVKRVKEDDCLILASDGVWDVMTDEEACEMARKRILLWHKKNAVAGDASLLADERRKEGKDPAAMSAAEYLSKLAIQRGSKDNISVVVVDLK"}
{"Substitution": "V76G", "relative binding score [%]": -6.73}
{"Substitution": "I172S", "relative binding score [%]": -6.8}
{"Substitution": "S42F", "relative binding score [%]": -5.31}
{"Substitution": "R90S", "relative binding score [%]": -4.53}
{"Substitution": "A84C", "relative binding score [%]": 34}
{"Substitution": "E89Q", "relative binding score [%]": -3.18}
{"Substitution": "S80N", "relative binding score [%]": 40.7}
{"Substitution": "R90P", "relative binding score [%]": -3.29}
{"Substitution": "K126A", "relative binding score [%]": 69.1}
{"Substitution": "D153M", "relative binding score [%]": -2.79}
{"data": "Study 3", "target": "Prothrombin, mature alpha-thrombin (F2, Homo sapiens, UniProt P00734)", "method": "aptamer microarray, sandwich", "form": "DNA with 2'F-ANA", "matrix": "in vitro", "concentration": "200 nM", "notes": "whole 15-mer aptamer, many near background", "added": "Cy3 exosite-II aptamer, 400 nM", "reading": "higher = stronger binding", "sequence": "GGTTGGTGTGGTTGG"}
{"Modification": "2'F-ANA at 1 3 4 5 7 13 14", "mean fluorescence intensity [a.u.]": 79.4}
{"Modification": "2'F-ANA at 1 2 3 4 7 9 12 15", "mean fluorescence intensity [a.u.]": 334}
{"Modification": "2'F-ANA at 1 4 6 9 10 11 12 13 15", "mean fluorescence intensity [a.u.]": 56}
{"Modification": "2'F-ANA at 2 3 4 6 7 8 9 10 11 12 15", "mean fluorescence intensity [a.u.]": 234}
{"Modification": "2'F-ANA at 1 2 3 4 9 10 12", "mean fluorescence intensity [a.u.]": 77.6}
{"Modification": "2'F-ANA at 1 2 3 5 8 10 12 13 14", "mean fluorescence intensity [a.u.]": 47.7}
{"Modification": "2'F-ANA at 2 3 5 6 7 9 13", "mean fluorescence intensity [a.u.]": 63.8}
{"Modification": "2'F-ANA at 1 2 4 5 6 7 8 9 10 12 14 15", "mean fluorescence intensity [a.u.]": 67.2}
{"Modification": "2'F-ANA at 2 3 4 5 7 8 9 11 12 13", "mean fluorescence intensity [a.u.]": 129}
{"Modification": "2'F-ANA at 2 8 10 12 14 15", "mean fluorescence intensity [a.u.]": 83.1}
{"Modification": "2'F-ANA at 1 5 6 10 13 14", "mean fluorescence intensity [a.u.]": 65.4}
{"Modification": "2'F-ANA at 1 3 6 8 9 12 15", "mean fluorescence intensity [a.u.]": 535}
{"Modification": "2'F-ANA at 5 7 9", "mean fluorescence intensity [a.u.]": 90.6}
{"Modification": "2'F-ANA at 1 2 3 4 7 9 11 15", "mean fluorescence intensity [a.u.]": 142}
{"Modification": "2'F-ANA at 2 3 5 6 9 11 14 15", "mean fluorescence intensity [a.u.]": 50.1}
{"Modification": "2'F-ANA at 2 5 6 7 8 9 11 12 13 14", "mean fluorescence intensity [a.u.]": 63.6}
{"data": "Study 4", "target": "CCND1, cyclin fold, Cln2 fusion (human)", "method": "yeast growth competition, sequencing", "matrix": "yeast", "notes": "weak parent motif", "reference": "not given", "reading": "higher = stronger binding", "parent": "FOXM1 docking peptide (human); PHLARPIKVESPP; partner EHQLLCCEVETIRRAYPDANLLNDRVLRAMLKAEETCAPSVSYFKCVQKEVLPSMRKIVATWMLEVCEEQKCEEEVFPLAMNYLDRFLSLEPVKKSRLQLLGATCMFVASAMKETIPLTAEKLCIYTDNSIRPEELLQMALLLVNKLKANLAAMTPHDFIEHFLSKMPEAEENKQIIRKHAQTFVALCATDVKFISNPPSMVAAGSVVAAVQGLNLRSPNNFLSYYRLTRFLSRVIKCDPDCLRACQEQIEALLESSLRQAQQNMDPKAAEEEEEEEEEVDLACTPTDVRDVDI"}
{"Substitution": "V9A", "normalised enrichment score": 0.117}
{"Substitution": "H2A", "normalised enrichment score": 0.539}
{"Substitution": "L3A", "normalised enrichment score": 0.447}
{"Substitution": "P12A", "normalised enrichment score": 0.11}
{"Substitution": "R5A", "normalised enrichment score": 0.365}
{"Substitution": "S11A", "normalised enrichment score": 0.49}
{"note": "For quick reference, copied from above (study 2):"}
{"Substitution": "R90S", "relative binding score [%]": -4.53}
{"Substitution": "A84C", "relative binding score [%]": 34}
{"Substitution": "E89Q", "relative binding score [%]": -3.18}
{"Substitution": "S80N", "relative binding score [%]": 40.7}
{"Substitution": "R90P", "relative binding score [%]": -3.29}
{"Substitution": "K126A", "relative binding score [%]": 69.1}
{"Substitution": "D153M", "relative binding score [%]": -2.79}
